Measured values collected from several papers.
Each line is one published result; not all experiments were run side by side. ± gives the spread as reported.

N#Cc1ccc2c(c1)[C@H]1CCCN(C(=O)c3ccc4[nH]cnc4c3)[C@H]1C2
Cmax steady state (human, plasma; oral, 20 mg once daily, steady state): 2180 nM

C=CC(=O)N1CCC[C@@H](n2c(=O)n(-c3ccc(Oc4ccccc4)cc3)c3c(N)nccc32)C1
Cmax fed/fasted ratio (human; oral, 300 mg; baseline: fed over fasted): 0.71

O=C(c1cccnc1-c1ccncc1)N1CCC(O)(Cc2ccccc2)CC1
Cmax at steady state (human, moderate hepatic impairment, plasma; oral, 300 mg): 5170 ng/mL

Cc1cc(Nc2ncnc3ccc(NC4=NC(C)(CO)CO4)cc23)ccc1Oc1ccn2ncnc2c1 (centres unmarked)
Cmax (arithmetic mean) (human, plasma; tucatinib, day 10, added: rifampin once daily): 105 ng/mL

COC(=O)N[C@@H](C)CNc1nccc(-c2cn(C(C)C)nc2-c2cc(Cl)cc(NS(C)(=O)=O)c2F)n1
Cmax geometric mean ratio (human, plasma; oral, single dose, added: posaconazole; baseline: compound alone): 168%

CC(C)c1nc(N(C)S(C)(=O)=O)nc(-c2ccc(F)cc2)c1/C=C/[C@@H](O)C[C@@H](O)CC(=O)O
Cmax decrease (healthy human subjects; oral, 10 mg, added: fruquintinib 5 mg; baseline: fruquintinib alone): ~16%

CC(C)(C(=O)N1CCOc2c(C#N)cncc2C1)C(F)F
Cmax dose proportionality ratio (healthy humans, both sexes, plasma; oral, 40 mg single dose, 2-fold dose increase; baseline: 40 mg over 20 mg): 2.31

N[C@@H]1c2cccnc2[C@H](OC(=O)N2CCC(n3c(=O)[nH]c4ncccc43)CC2)CC[C@H]1c1cccc(F)c1F
Cmax change (human, plasma; oral, 75 mg, added: fluconazole; baseline: compound alone): 1.04 fold

CC(C)(C#N)c1cc(Cn2cncn2)cc(C(C)(C)C#N)c1
Cmax at steady state (human; 150 mg): 51.6 ng/mL

COc1cc(C(=O)NC2CCN(C)CC2)c(F)cc1Nc1ncc(C(F)(F)F)c(Oc2cccc3c2C(=O)N(C)C3)n1
Cmax steady state (human, Japanese, plasma; oral, 200 mg once daily multiple dose, geometric mean): 2960 nM

O=C(c1cc(Cc2n[nH]c(=O)c3ccccc23)ccc1F)N1CCN(C(=O)C2CC2)CC1
Cmax change (human; oral, dose not given, added: carboplatin): ~20%

COC(=O)N[C@H](C(=O)N1CCC[C@H]1c1ncc(-c2cc(F)c3c(c2)O[C@@H](c2cnc(C4CC4)s2)n2c-3cc3cc(-c4cnc([C@@H]5CCCN5C(=O)[C@@H](NC(=O)OC)C(C)C)[nH]4)ccc32)[nH]1)C(C)C
Cmax increase (healthy adult humans; oral, dose not given; baseline: low-fat meal over fasted): ~20%

CO[C@]1(C(=O)N[C@@H](C)c2ccc(-n3cc(F)cn3)nc2)CC[C@H](c2nc(C)cc(Nc3cc(C)[nH]n3)n2)CC1
Cmax increase (human, plasma; oral, 200 mg single dose, added: high-fat meal; baseline: fasted): 104%

C=CC(=O)NC1CCN(c2ncc3ncnc(Nc4ccc(Oc5ccc6c(c5)ncn6C)c(C)c4)c3n2)CC1
Cmax reduction (human, male, plasma; oral, 30 mg, fed; baseline: fasted): 46%

COc1ccc2nc([S@@+]([O-])Cc3ncc(CO)c(OC)c3C)[nH]c2c1
Cmax ratio (human; fluvoxamine plus voriconazole inhibition session; baseline: (R)-OH-omeprazole over compound): 3.4 fold

CCOc1cc(CC(=O)N[C@@H](CC(C)C)c2ccccc2N2CCCCC2)ccc1C(=O)O
Cmax decrease (human; oral, dose not given, added: omaveloxolone; baseline: substrate alone): 24%

C[C@@H](Oc1ccc(S(C)(=O)=O)cc1C(=O)N1C[C@@H]2C[C@]2(c2cc(C(F)(F)F)on2)C1)C(F)(F)F
Cmax increase (healthy human volunteers; oral, 10 mg single dose, added: Meal, high-fat, ~1000 kcal; baseline: fasted state): 18%

COc1c(C)c2c(c(O[C@@H]3O[C@H](C(=O)O)[C@@H](O)[C@H](O)[C@H]3O)c1C/C=C(\C)CCC(=O)O)C(=O)OC2
Cmax geometric mean ratio (healthy humans; oral, dose not given, added: isavuconazole co-administration; baseline: with isavuconazole over MMF alone): 68%

COc1cc(Nc2c(C#N)cnc3cc(OCCCN4CCN(C)CC4)c(OC)cc23)c(Cl)cc1Cl
Cmax geometric mean ratio (human, severe hepatic impairment, plasma; baseline: normal hepatic function): 152%

CC(C)=CCC/C(C)=C/CC/C(C)=C/CC[C@@](C)(O)CCC1=C(C)C(=O)C(C)=C(C)C1=O
Cmax geometric LS mean (healthy human, plasma; oral, 400 mg, single dose, alone): 992 ng/mL

O=C(O)C[C@H](O)C[C@H](O)/C=C/c1c(C2CC2)nc2ccccc2c1-c1ccc(F)cc1
Cmax increase (OATP1B1/1B3 humanised mice, plasma; oral, dose not given, added: rifampicin 20 mg/kg; baseline: vehicle): 3.45 fold

Cc1cc(Nc2ncc(Cl)c(Nc3ccccc3S(=O)(=O)C(C)C)n2)c(OC(C)C)cc1C1CCNCC1
Cmax increase (human, plasma; oral, 450 to 600 mg, cycle 1 day 1): 45%

N#Cc1ccc(C(c2ccc(C#N)cc2)n2cncn2)cc1
Cmax at steady state (human; 150 mg): 132 ng/mL

COC(=O)N[C@@H](C)CNc1nccc(-c2cn(C(C)C)nc2-c2cc(Cl)cc(NS(C)(=O)=O)c2F)n1
Cmax median (humans, plasma; oral, dose not given, day 14, steady state, added: binimetinib): 2950 ng/mL

CC1(C)CC[C@]2(NC(=O)C(C)(F)F)CC[C@]3(C)[C@H](C(=O)C=C4[C@@]5(C)C=C(C#N)C(=O)C(C)(C)[C@@H]5CC[C@]43C)[C@@H]2C1
Cmax decrease (human; oral, dose not given, added: efavirenz; baseline: compound alone): 38%

NC[C@@]1(CC(=O)O)[C@@H]2CC[C@H]3C[C@@H]2[C@@H]1C3
Cmax increase (human, moderate renal impairment, plasma; dose not given; baseline: normal renal function): 13.8%

N#CCNC(=O)c1ccc(-c2ccnc(Nc3ccc(N4CCOCC4)cc3)n2)cc1
Cmax change (healthy human volunteers, plasma; dose not given, added: multiple-dose rifampin; baseline: compound alone): no effect

N[C@@H](CC(=O)N1CCn2c(nnc2C(F)(F)F)C1)Cc1cc(F)c(F)cc1F
Cmax divided by body mass index (human, male, plasma; oral, 100 mg single dose): 19.6 ± 6.28 ng/mL

CC(C)(C)OC[C@@H]1C(=O)NCCN1C(=O)C[C@H](N)Cc1cc(F)c(F)cc1F
Cmax at steady state (healthy humans, plasma; oral, 5 mg once daily, 7 days, alone): 5.61 ± 0.7 ng/mL

[H]/N=C(/N)c1ccc(NCc2nc3cc(C(=O)N(CCC(=O)O)c4ccccn4)ccc3n2C)cc1
Cmax increase (healthy human, plasma; oral, dose not given, dabigatran etexilate dosed, added: vepdegestrant; baseline: alone): 92%

CN1CCC(COc2cnc(-c3cccc(Cn4nc(-c5cccc(C#N)c5)ccc4=O)c3)nc2)CC1
Cmax geometric mean ratio (human; added: itraconazole; baseline: compound alone): 102%

C[C@H]1O[C@@H](O[C@H]2[C@@H](O)C[C@H](O[C@H]3[C@@H](O)C[C@H](O[C@H]4CC[C@@]5(C)[C@H](CC[C@@H]6[C@@H]5C[C@@H](O)[C@]5(C)[C@@H](C7=CC(=O)OC7)CC[C@]65O)C4)O[C@@H]3C)O[C@@H]2C)C[C@H](O)[C@@H]1O
Cmax decrease (human; oral, dose not given, added: omaveloxolone; baseline: substrate alone): 15%

A few entries again:
COC(=O)N[C@@H](C)CNc1nccc(-c2cn(C(C)C)nc2-c2cc(Cl)cc(NS(C)(=O)=O)c2F)n1
Cmax geometric mean ratio (human, plasma; oral, single dose, added: posaconazole; baseline: compound alone): 168%

CC(C)c1nc(N(C)S(C)(=O)=O)nc(-c2ccc(F)cc2)c1/C=C/[C@@H](O)C[C@@H](O)CC(=O)O
Cmax decrease (healthy human subjects; oral, 10 mg, added: fruquintinib 5 mg; baseline: fruquintinib alone): ~16%

CC(C)(C(=O)N1CCOc2c(C#N)cncc2C1)C(F)F
Cmax dose proportionality ratio (healthy humans, both sexes, plasma; oral, 40 mg single dose, 2-fold dose increase; baseline: 40 mg over 20 mg): 2.31

N[C@@H]1c2cccnc2[C@H](OC(=O)N2CCC(n3c(=O)[nH]c4ncccc43)CC2)CC[C@H]1c1cccc(F)c1F
Cmax change (human, plasma; oral, 75 mg, added: fluconazole; baseline: compound alone): 1.04 fold
